Measured values collected from several papers.
Numbered parts are unrelated; each lists some results of a single study. Changes are numbered by the printed parent chain.

Sample 1
Target: Centromere-binding protein 1, full length, N-terminal tag (CBF1, Saccharomyces cerevisiae, UniProt P17106, residues 1-351)
UniProt P17106, sequence (whole entry, looked up): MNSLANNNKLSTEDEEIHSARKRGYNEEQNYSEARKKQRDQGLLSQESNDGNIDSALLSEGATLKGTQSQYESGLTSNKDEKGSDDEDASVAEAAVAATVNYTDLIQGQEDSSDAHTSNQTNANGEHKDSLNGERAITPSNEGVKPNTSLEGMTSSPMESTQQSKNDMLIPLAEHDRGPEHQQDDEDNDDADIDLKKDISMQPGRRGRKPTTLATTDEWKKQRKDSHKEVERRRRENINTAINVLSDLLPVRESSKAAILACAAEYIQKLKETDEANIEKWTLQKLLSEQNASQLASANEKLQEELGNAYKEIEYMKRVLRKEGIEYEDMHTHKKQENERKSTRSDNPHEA
Method: protein-binding microarray
Form: double-stranded DNA, one strand shown
Matrix: in vitro
Tested at: 0.8 µM
Setting: whole 60-bp probe, no competitor
Direction: higher = stronger binding
All sequences stand within: … GTCTTGATTCGCTTGACGCTGCTG
Sequence	fluorescence intensity
GAAAGTAATACCTGTGCCATGTGATAGCCATATTAG	2000 a.u.
CTACTATACATGGGGTACGTGCCTGTATTTTGATTC	613 a.u.
GAATCGTTAAAATACGTGATGGTGTTATTTTTATAG	546 a.u.
CTACTACACGTTGGTCTGATGTCTCAGGAGTTATTC	540 a.u.
CTAGACGTTGAAGAGCACGCAGGCCTATGAAAATTC	537 a.u.
TGTACGAAGCTATTGAAGGTGACTATAGTAGTTAGG	536 a.u.
GAAACCTGTGCTTTGAACGTGTCTCATTTCTGCTAG	547 a.u.
CCTAACTACTATATTGACATGATATAGCTTCGTACA	534 a.u.
GAAATGATAAAAAACCACGGGGTCTTATTTTGCTAG	1130 a.u.
GAATATCAGTATCATCAGTTGAAACAGTAAGGATAG	552 a.u.
TGTACGAAGCTATAGGTGGTGATTATAGTAGTTAGG	580 a.u.
GAACGTTAAAATCTTCACATGGCCCGGCCGCGCTAG	543 a.u.
TGTACGAAGCTATTCCACATGAATATAGTAGTTAGG	531 a.u.
GAACGGAAAAAAAAGCACGTCACGAAAATAAAATAG	727 a.u.
CTAATAGGGTCATGTCACGTAATAAGCAACGTGTTC	820 a.u.
CTAGACAAAGAGTATGACGTGAAAATGATGCGCTTC	583 a.u.
CTAGGCATCGTCTCTCACGTGAAATCTGTGGGGTTC	2510 a.u.
CTACCCTGGAAGTCTCAGCTGATTCATTTAAATTTC	665 a.u.
GAACTTTTTAGTTAGCACGTTTTCATCTCTTTTTAG	915 a.u.
TGTACGAAGCTATATCAGACATGTATAGTAGTTAGG	571 a.u.

Sample 2
Target: RNA binding protein fox-1 homolog 2, RRM domain, GST-SBP tag (RBFOX2, Homo sapiens, UniProt O43251-10, residues 100-194)
Method: RNA Bind-n-Seq
Form: RNA
Matrix: in vitro
Tested at: 365 nM
Setting: natural RNA segment, single round, ends assumed
Relative to: no-protein control
Direction: higher = stronger binding
All sequences stand within: GGGAGUUCUACAGUCCGACGAUC … UGGAAUUCUCGGGUGCCAA
Residues (chain): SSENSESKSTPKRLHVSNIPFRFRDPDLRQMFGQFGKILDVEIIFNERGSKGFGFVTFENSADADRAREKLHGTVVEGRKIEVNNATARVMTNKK
Sequence	RBNS enrichment (R)
ACCCUGGGUCCCACACUGAAAUCCCCUCUAGUCACCCAUUCCCACCCCCCAGGGAGCUGCCUCCCAGGCAGGGGGUGCAGAAAAUGAUUGAUGGGCUGGGGAACCCUGGA	0.167
CCAACUACCACAUAGCAAGAGCCCAGCUCUUGGGAGCAUUGAGAUGUAAGCUCAGGGUUACACAGUUCCAAAUCUUGGGAAGGGGCUUUUCAGACAGACUGUUUGCUUUC	0.272
CAUACCUGCCUCAGCCUGACAGGAGUAGGUUUUCCGCAACCCACUGUGCUGAGACAGUUGAUGUGAUGCAAACUAUUCUUGGAGUGUGUUGUUUUCUUUGGCCCAAGGGU	0.42
UUAAGUGAGAUGCACACAAAAAGCUCAGCACAGUGUCUGGCAUCUAAUAUGUGCAGGGCAGAUGUCACUACUGAAUAUCACAUCAAUGCUAGGGCUGUAUUUACUGUCAC	0.631
AAAUGUUGACUCUCCAUCCAUAGUGUUAGGGGCAGCCGUGGAAGCAGCAGCAGCCAGGGAUGUCUCUGGGCCUGGCUCUCCUGCAUGCUGUGCCCGGGGCAGGCCUGACG	2.63
UGAAGGGCUAGAGUUUUAACUUUUAAUUUUUUAUAUUUAAAUGUAGACUUUUGACACUUUUAAAAAACAAAAAAAGACAAGAGAGAUGAAAACGUUUGAUUAUUUUCUCA	1.23
AAUUAUGUGACAUUGAAACCUGCUGCUGCCGUGAUCUUGAGGAGAGUACAGAUGGGGAGGAAGGUUCCAGACUCUCCUCUCACUUUUUUUUUCCUCUCCUAUUCCAACAC	0.349
UUAUAUUUGUUCGGGUGCCACCUUCCACCAGCUUACCACUACGGUAGAACUGUCAAAUUCAUCUCCCUGAAUUUGUCUUAAAGGGGUGUCCAUGCACAGGCCCAAGAGUC	0.303
GCUUUUUUCCUUAUAAGUUUAUAAGUUUGAUUUCAGAUGUUGGAAAUGUGUGCUUUAUAGUGUUUACUAAAGUGACAAGAAAAUAUACCAUUUGACACACUAUAGAUUCC	0.355
UUUUUUUUUGUAAAUGUUCUGUAAAGAAAAAAUGUACAGUAAAUAAAGUGUUUUAUUUGUAGACUGACUACGACUUUUUUCUUCAUGGUGGGAUUUGUUGCUCUACUGCC	0.445
CCUAUAGAUUCUGUAGCAUUUGAGUGUGGCAAUAUUUUAAUUGUGUAUAGAUUUCUAAGAACCAACACUACUCAGUCUCCUGCUAGUCUGACUCCUGAAGCAUCAGCCCU	0.509
AGAGGAAAAUUGGCACCUCAUCUUUUAAAGGCAGUAAUGGAAUUGAUUUUCAGUAACUGAAUUUGUGCACAAAACAUUCUAAACACUAGUGAAGCCUGUUUCGUUGAACU	0.36

Sample 3
Target: Interferon regulatory factor 5, full length, phosphomimetic (IRF5, Homo sapiens, UniProt Q13568-2, residues 1-514, K96S/S451D/S453D/S456D/S462D)
Method: protein-binding microarray
Form: double-stranded DNA, one strand shown
Matrix: in vitro
Tested at: 250 nM
Setting: 60-bp whole probe
Together with: salmon DNA 0.4 mg/ml
Relative to: random background probes
Direction: higher = stronger binding
All sequences stand within: GCCTAGCAC … GTCTTGATTCGCTTGACGCTGCTG
Sequence	log fluorescence
TTAGGACTGTTACTGCTTTAGTGCTAG	-0.11 z-score
GCTCCTCTTTTTTTGGTAATGTGCTAG	0.534 z-score
TTAGGTATGGGGTATCGGTTAGTGCTA	2.47 z-score
GACTTTTTACCTGTGGTGTAGTGCTAG	0.303 z-score
GACGGTCCCGGACTGGGGACGTGCTAG	-0.658 z-score
GACGATTTCGGGCATCGAGACGTGCTA	2.33 z-score
TTAGGTTTCGGACTGGGCTAGTGCTAG	5.36 z-score
TTAGATCTCGGTTTCGATTAGTGCTAG	8.15 z-score
CTGACATGTAAATGTGACATGTGCTAG	0.17 z-score
TTAGATTTCAGTTTCGAATAGTGCTAG	7.76 z-score
GACGGATTCCTTCTCCTGACGTGCTAG	-0.0625 z-score
TTTTTTTTCCTAATTGAACCGTGCTAG	1.22 z-score
TTAGGTTTCGGTCTCGGTTCGTGCTAG	10.5 z-score
GACGATATCGGGACTGGAGTCGTGCTA	1.01 z-score
GAAAATGCCCTTTTGGTGAGGTGCTAG	1.23 z-score
GAAATTTTCCCCTACTGTATGTGCTAG	1.72 z-score
GACGGTCTCCGTTTCGGGACGTGCTAG	1.93 z-score

Sample 4
Target: CCNB1, cyclin fold, Cln2 fusion (human)
Method: yeast growth competition, sequencing
Matrix: yeast
Setting: weak parent motif
Relative to: not given
Direction: higher = stronger binding
Starting sequence: RB1 docking peptide (human); PKPLKKLRFDIEG
Change	normalised enrichment score
PKPVKKLRFDIEG [L4V]	1.82
PKPRKKLRFDIEG [L4R]	0.557
PKPLKKLRSDIEG [F9S]	0.317
PKPLKTLRFDIEG [K6T]	0.444
PKPLKKLRFDIEQ [G13Q]	1.81
PKPLKKLHFDIEG [R8H]	0.655
PKPLKKLRFDKEG [I11K]	0.649
PKPLKKLRFDIPG [E12P]	1
PKHLKKLRFDIEG [P3H]	0.3
PKILKKLRFDIEG [P3I]	0.618
PKPLKKWRFDIEG [L7W]	0.548
PKPLKKLRTDIEG [F9T]	0.285
PKPLKKLNFDIEG [R8N]	0.138
PKPLKKLRFDICG [E12C]	0.506
PKPLKKLVFDIEG [R8V]	0.736
PKFLKKLRFDIEG [P3F]	-0.246
PKPLKKLRFDIEM [G13M]	0.446
PKPLKKLRFDIEI [G13I]	0.662
PKPLKKLIFDIEG [R8I]	0.51
PKPLKPLRFDIEG [K6P]	0.175
PKPLKKLDFDIEG [R8D]	0.518
PKPQKKLRFDIEG [L4Q]	0.00297
PKPLKKLRFDIDG [E12D]	0.19
WKPLKKLRFDIEG [P1W]	0.744
VKPLKKLRFDIEG [P1V]	0.947

Sample 5
Target: Sal-like protein 4, full length isoform A (SALL4, Homo sapiens, UniProt Q9UJQ4, residues 1-1053)
UniProt Q9UJQ4, sequence (whole entry, looked up): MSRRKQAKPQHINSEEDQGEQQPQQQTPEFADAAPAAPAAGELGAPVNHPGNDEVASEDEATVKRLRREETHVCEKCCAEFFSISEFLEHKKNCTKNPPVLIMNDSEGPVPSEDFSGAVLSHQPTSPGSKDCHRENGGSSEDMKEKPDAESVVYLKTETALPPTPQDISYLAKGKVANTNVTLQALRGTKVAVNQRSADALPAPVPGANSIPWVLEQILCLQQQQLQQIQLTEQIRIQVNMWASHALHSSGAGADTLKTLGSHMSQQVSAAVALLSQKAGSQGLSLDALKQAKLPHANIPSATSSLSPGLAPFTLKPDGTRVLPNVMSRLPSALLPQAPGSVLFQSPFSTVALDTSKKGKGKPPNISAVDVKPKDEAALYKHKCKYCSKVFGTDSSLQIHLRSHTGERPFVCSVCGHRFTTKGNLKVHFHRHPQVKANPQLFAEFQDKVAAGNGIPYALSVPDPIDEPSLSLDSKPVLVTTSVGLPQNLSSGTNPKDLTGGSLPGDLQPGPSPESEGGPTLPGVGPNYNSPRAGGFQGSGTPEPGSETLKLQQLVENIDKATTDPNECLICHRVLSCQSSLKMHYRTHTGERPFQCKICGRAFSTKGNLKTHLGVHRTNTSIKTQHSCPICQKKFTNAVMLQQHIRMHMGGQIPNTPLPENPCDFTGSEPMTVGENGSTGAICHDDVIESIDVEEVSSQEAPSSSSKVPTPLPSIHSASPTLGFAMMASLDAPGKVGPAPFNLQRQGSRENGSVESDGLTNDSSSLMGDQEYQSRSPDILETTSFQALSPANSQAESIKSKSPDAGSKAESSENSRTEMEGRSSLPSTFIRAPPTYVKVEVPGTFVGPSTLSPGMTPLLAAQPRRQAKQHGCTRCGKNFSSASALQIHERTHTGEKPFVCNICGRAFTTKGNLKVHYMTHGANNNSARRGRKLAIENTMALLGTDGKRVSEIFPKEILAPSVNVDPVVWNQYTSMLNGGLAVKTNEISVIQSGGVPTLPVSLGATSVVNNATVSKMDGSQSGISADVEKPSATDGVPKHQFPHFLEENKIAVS
Method: universal PBM
Form: double-stranded DNA, one strand shown
Matrix: in vitro
Tested at: 600 nM
Setting: 8-mer, flanks averaged, mean of replicates
Direction: higher = stronger binding
Sequence	E-score
CCGATCAG	-0.182
ACGTTTAG	0.0131
AAACAAAC	0.185
AATCCGCG	-0.208
GACGGAGC	-0.266
AAAGAAGT	0.122
CTGACTGA	-0.144
AAGAACGC	0.0166
AAAGGGTG	-0.0484
AAACAAGA	0.192
ATGTCGCG	-0.0614
GCGTGCGA	-0.261
CACTGGGC	-0.35
ACCTGTCG	-0.0946
ATTTTACA	0.283
AGTCCGAT	0.0731
TTATGGAA	0.346
CCTCACAG	-0.103
ACTTGGTA	0.18
AAAGGAAA	0.262
TAGACTGA	0.108
ATAACGCG	0.0284

Other studies, line by line
Sequence	target	method	form	endpoint	result
GGTCCGTCGGACC (dsDNA)	KAT6A 1-85 (Homo sapiens, UniProt Q92794)	X-ray crystallography	double-stranded DNA, one strand shown	binding	binds

For quick reference, copied from above (sample 4):
Change	normalised enrichment score
PKPRKKLRFDIEG [L4R]	0.557
PKPLKTLRFDIEG [K6T]	0.444
PKPLKKLRFDICG [E12C]	0.506
VKPLKKLRFDIEG [P1V]	0.947
PKPLKKLRFDIEM [G13M]	0.446
PKPLKKWRFDIEG [L7W]	0.548
PKPLKKLHFDIEG [R8H]	0.655
PKPQKKLRFDIEG [L4Q]	0.00297
PKPLKKLVFDIEG [R8V]	0.736
PKPLKKLIFDIEG [R8I]	0.51
PKHLKKLRFDIEG [P3H]	0.3
PKPLKKLRTDIEG [F9T]	0.285
PKPLKKLRFDKEG [I11K]	0.649
